Assay results from different studies.
Protocols differ between the studies behind these lines.
Route: oral

O=C(c1nc2n(n1)[C@H](c1ccccc1)C[C@@H]2F)C1CC1  AUC(0-t) (human, plasma; 5 mg, single dose, fasted, healthy volunteers): 831 ng·h/mL
CS(=O)(=O)n1cc2c(n1)CN([C@H]1CO[C@H](c3cc(F)ccc3F)[C@@H](N)C1)C2  AUC(0-t) (male human, plasma; 25 mg, single dose, fasted): 23.8 µM·h
CCCCCN1C[C@H](O)[C@@H](O)[C@H](O)[C@@H]1CO  AUC(0-t) (human, plasma; 10 mg, single dose, fasted, healthy volunteers): 282 ng·h/mL
O=C(NCCN1CCCC1)c1cc(-c2ccc(CN3CCOCC3)cc2)nc2ccc(F)cc12  AUC(0-t) (human, blood; 100 mg, single dose, whole blood): 949 ng·h/mL
CS(=O)(=O)n1cc2c(n1)CN([C@H]1CO[C@H](c3cc(F)ccc3F)[C@@H](N)C1)C2  AUC(0-t) (male human, plasma; 1.5 mg, single dose, fasted, healthy volunteers): 1.2 µM·h
CCCOc1ccc([C@H]2CNC(=O)N2c2ccc3[nH]cnc3c2)cc1  AUC(0-t) (human, plasma; 30 mg, single dose, fasted): 168 ng·h/mL
CN(C)C/C=C/C(=O)Nc1cc2c(Nc3ccc(F)c(Cl)c3)ncnc2cc1O[C@H]1CCOC1  AUC(0-t) (human, plasma; 20 mg, multiple doses, once daily, steady state, patients): 442 ng·h/mL
CCOc1ccc(Cc2cc([C@@H]3S[C@H](CO)[C@@H](O)[C@H](O)[C@H]3O)c(OC)cc2C)cc1  AUC(0-t) (human, plasma; 3 mg, single dose, fasted, healthy volunteers): 973 ng·h/mL
